Results pooled from the literature.
Protocols differ between the studies behind these lines. ± marks the error that the study gave.
Peptidyl-prolyl cis-trans isomerase NIMA-interacting 4: Peptidyl-prolyl cis-trans isomerase NIMA-interacting 4 (Homo sapiens, UniProt Q9Y237)
Chain of UniProt Q9Y237 (whole entry, looked up): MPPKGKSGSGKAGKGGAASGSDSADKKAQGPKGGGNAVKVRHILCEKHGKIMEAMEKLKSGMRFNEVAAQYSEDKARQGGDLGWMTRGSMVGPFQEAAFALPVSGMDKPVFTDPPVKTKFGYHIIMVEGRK
Beta-lactamase CTX-M-27: Beta-lactamase CTX-M-27 (Escherichia coli, UniProt Q840M4)
Chain of UniProt Q9BYG8 (whole entry, looked up): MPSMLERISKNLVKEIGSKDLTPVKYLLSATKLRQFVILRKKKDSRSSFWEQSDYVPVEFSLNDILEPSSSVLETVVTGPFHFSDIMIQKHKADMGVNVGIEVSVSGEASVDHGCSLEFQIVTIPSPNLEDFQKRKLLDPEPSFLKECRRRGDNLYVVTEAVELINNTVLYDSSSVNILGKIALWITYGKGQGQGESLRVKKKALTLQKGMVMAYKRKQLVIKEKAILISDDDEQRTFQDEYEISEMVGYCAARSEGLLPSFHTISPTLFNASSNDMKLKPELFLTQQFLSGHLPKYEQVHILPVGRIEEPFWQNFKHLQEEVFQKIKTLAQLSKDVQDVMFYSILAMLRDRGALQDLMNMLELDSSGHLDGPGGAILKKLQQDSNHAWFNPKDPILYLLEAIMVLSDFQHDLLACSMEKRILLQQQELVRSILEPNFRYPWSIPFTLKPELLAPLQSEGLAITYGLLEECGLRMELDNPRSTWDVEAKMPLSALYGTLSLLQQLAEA
Chain of UniProt P10415 (whole entry, unmodified, looked up): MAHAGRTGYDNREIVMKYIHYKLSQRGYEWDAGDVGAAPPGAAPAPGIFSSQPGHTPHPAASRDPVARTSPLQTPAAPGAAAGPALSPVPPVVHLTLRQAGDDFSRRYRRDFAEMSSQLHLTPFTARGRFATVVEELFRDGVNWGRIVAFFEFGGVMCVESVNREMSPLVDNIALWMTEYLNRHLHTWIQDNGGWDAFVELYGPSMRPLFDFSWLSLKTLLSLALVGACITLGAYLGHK
Chain of UniProt P02671 (whole entry, unmodified, looked up): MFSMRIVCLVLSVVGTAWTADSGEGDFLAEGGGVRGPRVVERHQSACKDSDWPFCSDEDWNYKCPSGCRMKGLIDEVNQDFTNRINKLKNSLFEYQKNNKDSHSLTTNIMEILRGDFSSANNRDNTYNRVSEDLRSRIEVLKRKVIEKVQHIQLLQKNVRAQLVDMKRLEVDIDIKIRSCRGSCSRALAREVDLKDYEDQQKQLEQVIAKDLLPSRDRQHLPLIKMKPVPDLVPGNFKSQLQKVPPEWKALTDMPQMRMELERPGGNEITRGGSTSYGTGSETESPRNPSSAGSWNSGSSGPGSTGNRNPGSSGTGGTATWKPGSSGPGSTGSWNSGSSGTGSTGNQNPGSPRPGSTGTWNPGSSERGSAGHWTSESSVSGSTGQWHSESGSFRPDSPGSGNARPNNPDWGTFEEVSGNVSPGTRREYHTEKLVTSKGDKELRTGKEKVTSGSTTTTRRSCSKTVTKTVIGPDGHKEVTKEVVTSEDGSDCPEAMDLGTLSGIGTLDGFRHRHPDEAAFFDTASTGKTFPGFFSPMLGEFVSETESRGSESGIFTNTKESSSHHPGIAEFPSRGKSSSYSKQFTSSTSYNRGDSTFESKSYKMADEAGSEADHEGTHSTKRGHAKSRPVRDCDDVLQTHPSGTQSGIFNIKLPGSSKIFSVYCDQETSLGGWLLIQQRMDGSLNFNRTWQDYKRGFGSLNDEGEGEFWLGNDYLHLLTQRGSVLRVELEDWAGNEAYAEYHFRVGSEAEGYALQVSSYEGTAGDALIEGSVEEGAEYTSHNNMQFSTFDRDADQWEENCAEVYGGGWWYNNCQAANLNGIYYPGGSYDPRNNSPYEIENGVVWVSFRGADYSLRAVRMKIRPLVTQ
Chain of UniProt Q07741 (whole entry, looked up): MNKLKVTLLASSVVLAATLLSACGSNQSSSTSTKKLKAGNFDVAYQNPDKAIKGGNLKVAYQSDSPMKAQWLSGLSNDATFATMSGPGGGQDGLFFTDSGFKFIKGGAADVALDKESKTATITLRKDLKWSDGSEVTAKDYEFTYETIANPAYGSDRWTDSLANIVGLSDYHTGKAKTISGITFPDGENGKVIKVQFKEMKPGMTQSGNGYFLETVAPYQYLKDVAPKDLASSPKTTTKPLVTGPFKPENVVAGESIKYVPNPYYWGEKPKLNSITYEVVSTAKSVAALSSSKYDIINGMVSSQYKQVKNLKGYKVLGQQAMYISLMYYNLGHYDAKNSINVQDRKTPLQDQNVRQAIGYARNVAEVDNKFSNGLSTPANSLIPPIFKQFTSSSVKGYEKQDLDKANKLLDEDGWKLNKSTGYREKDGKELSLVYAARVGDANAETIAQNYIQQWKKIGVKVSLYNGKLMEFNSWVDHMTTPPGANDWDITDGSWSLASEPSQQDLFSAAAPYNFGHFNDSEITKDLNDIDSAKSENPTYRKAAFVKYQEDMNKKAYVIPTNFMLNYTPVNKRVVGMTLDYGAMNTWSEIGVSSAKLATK
Chain of UniProt Q00987 (whole entry, looked up): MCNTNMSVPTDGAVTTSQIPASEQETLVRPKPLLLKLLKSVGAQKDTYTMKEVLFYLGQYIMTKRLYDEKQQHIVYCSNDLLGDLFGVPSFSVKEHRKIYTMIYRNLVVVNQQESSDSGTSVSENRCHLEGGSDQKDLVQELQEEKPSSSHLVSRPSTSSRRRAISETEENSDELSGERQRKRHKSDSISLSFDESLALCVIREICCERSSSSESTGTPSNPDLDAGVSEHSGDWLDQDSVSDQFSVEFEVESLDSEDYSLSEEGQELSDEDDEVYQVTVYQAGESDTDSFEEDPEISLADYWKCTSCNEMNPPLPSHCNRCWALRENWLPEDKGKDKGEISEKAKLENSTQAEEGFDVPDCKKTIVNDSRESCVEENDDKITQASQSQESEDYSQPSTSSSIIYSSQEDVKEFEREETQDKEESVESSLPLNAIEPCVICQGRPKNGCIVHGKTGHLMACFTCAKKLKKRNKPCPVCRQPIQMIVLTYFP
Chain of UniProt Q8N8S7 (whole entry, looked up): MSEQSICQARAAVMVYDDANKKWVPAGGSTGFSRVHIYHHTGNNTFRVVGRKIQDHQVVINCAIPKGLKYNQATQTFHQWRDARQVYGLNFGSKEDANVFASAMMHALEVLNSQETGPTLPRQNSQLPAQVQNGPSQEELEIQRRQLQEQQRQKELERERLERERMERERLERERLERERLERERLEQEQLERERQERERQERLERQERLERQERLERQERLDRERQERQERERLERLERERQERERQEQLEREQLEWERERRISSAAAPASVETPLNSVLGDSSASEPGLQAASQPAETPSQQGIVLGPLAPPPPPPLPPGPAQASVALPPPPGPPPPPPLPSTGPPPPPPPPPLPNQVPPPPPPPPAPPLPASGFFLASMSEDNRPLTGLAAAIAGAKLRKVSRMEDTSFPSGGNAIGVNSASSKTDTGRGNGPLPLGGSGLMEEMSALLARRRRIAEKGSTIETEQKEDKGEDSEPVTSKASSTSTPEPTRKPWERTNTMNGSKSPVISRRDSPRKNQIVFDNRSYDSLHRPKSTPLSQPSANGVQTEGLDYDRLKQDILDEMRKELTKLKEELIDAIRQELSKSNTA
Chain of UniProt O15392 (whole entry, unmodified, looked up): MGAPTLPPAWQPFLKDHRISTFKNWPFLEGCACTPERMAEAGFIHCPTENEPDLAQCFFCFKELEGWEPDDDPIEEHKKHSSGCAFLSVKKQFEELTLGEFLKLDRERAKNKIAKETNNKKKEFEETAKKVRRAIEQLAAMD
Chain of UniProt A6QGU8 (whole entry, looked up): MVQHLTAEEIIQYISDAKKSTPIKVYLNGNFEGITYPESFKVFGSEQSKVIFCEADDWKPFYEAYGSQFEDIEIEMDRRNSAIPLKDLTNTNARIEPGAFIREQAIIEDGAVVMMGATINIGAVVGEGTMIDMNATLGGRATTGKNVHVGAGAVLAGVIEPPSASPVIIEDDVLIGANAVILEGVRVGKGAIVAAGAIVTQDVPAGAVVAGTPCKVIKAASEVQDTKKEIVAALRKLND

COC(=O)[C@H](Cc1ccccc1)NC(=O)[C@@H]1CCCN1C(=O)[C@H](CCCCNC(=O)OCc1ccccc1)NC(=O)[C@H](C)NC(C)=O  Kd (Peptidyl-prolyl cis-trans isomerase NIMA-interacting 4; binding, label-free Epic; PBS; pH 7.4, 0.5% DMSO): 28.2 ± 7 µM
CC(=O)N(Cc1ccccc1)[C@@H](C)C(=O)N(C)[C@@H](C)C(=O)N(Cc1c[nH]c2cc(Cl)ccc12)[C@@H](C)C(=O)N(C)[C@@H](C)C(=O)N(CCC(C)(C)C)[C@@H](C)C(=O)N1CCNCC1  Kd (E3 ubiquitin-protein ligase Mdm2, N-terminal domain 17-125 (MDM2, Homo sapiens, UniProt Q00987); binding, SPR kinetic fit; PBS with Tween; 10 °C, immobilised peptoid): 0.0095 µM
CC(C)C[C@H](NC(=O)CNC(=O)[C@@H](NC(=O)[C@H](CO)NC(=O)[C@H](CCCCN)NC(=O)[C@H](CC(C)C)NC(=O)C1(NC(=O)[C@H](CCC(=O)O)NC(=O)[C@H](CC(C)C)NC(=O)[C@@H](N)C(C)C)CC(C)(C)N([O])C(C)(C)C1)C(C)C)C(=O)N[C@@H](Cc1ccccc1)C(=O)O  Kd (Rhodopsin, photoactivated (Meta II) (RHO, Bos taurus, UniProt P02699); EPR; rod outer segment membranes; pH 6.8, 296 K, rhodopsin 90 µM): 12.5 µM
CC(C)[C@H](NC(=O)[C@H](CCCNC(=N)N)NC(=O)[C@@H]1CCCN1C(=O)CNC(=O)[C@H](Cc1ccc(O)cc1)NC(=O)[C@@H](NC(=O)[C@H](C)NC(=O)[C@@H](NC(=O)CNC(=O)[C@H](CC(=O)O)NC(=O)[C@H](C)NC(=O)[C@H](Cc1c[nH]cn1)NC(=O)[C@@H](NC(=O)[C@@H](NC(=O)[C@@H](NC(=O)[C@H](CC(N)=O)NC(=O)[C@H](Cc1ccc(O)cc1)NC(=O)[C@H](C)NC(=O)[C@H](CC(N)=O)NC(=O)[C@@H](NC(=O)[C@H](CCCCN)NC(=O)[C@H](CO)NC(=O)[C@@H]1CCCN1C(=O)[C@H](CCCCN)NC(=O)[C@@H](N)CCCCN)[C@@H](C)O)C(C)C)[C@@H](C)O)[C@@H](C)O)[C@@H](C)O)[C@@H](C)O)C(=O)N[C@H](C(=O)N[C@@H](CCCCN)C(=O)O)[C@@H](C)O  Kd (FGA/FGB/FGG, D fragment (Homo sapiens, UniProt P02671+P02675+P02679, del433-453); isothermal titration calorimetry; pH 7.4, 27 °C): 0.168 ± 0.0365 µM
CCOC(=O)[C@@H]1CC[C@@H]2C=C[C@H]3CCN(C(=O)[C@@H]4CC[C@H]5C=C[C@]6(CCCN6C(=O)[C@H](Cc6ccccc6Cl)NC(=O)[C@H](CCC(=O)O)NC(=O)[C@H](Cc6ccccc6)NC(=O)[C@H](CO)NC(C)=O)C(=O)N54)[C@@H]3C(=O)N21  Kd (Protein enabled homolog (ENAH, UniProt Q8N8S7); binding, fluorescence; pH 7.3): 2.9 µM
COC(=O)[C@H](Cc1ccccc1)NC(=O)[C@@H]1CCCN1C(=O)[C@H](Cc1c[nH]cn1)NC(=O)[C@H](C)NC(C)=O  Kd (Peptidyl-prolyl cis-trans isomerase NIMA-interacting 4; binding, label-free Epic; PBS; pH 7.4, 0.5% DMSO): 5.7 ± 2.89 µM
O=C(Nc1cccc(-c2nn[nH]n2)c1)c1cc(-c2ncc[nH]2)cc(C(F)(F)F)c1  Kd (Beta-lactamase CTX-M-27; surface plasmon resonance; 25 °C): 1.33 ± 0.03 µM
N=C(N)NCCC[C@H](NC(=O)[C@H](Cc1ccccc1)NC(=O)[C@@H]1CCCN1C(=O)[C@H](CO)NC(=O)[C@H](Cc1ccccc1)NC(=O)CNC(=O)[C@@H]1CCCN1C(=O)[C@@H]1CCCN1C(=O)[C@@H](N)CCCNC(=N)N)C(=O)N[C@@H](CCCCNS(=O)(=O)c1ccc(C2=c3cc4c5c(c3Oc3c2cc2c6c3CCCN6CCC2)CCC[N+]=5CCC4)c(S(=O)(=O)[O-])c1)C(=O)O  Kd (Oligopeptide-binding protein OppA (oppA, Lactococcus lactis subsp. lactis, UniProt Q07741); binding, fluorescence anisotropy; pH 7, 18 °C, together with: dye-labelled peptide): 15.4 ± 0.4 µM
C[C@H](NC(=O)[C@@H](N)Cc1ccc(O)cc1)C(=O)NCC(=O)N[C@@H](CO)C(=O)N[C@H](C(=O)N[C@@H](CC(=O)O)C(=O)N[C@@H](CCC(=O)O)C(=O)N[C@@H](CC(N)=O)C(=O)N[C@H](C(=O)N[C@@H](CC(=O)O)C(=O)N[C@@H](CO)C(=O)N[C@@H](CCC(=O)O)C(=O)O)[C@@H](C)OP(=O)(O)O)[C@@H](C)O  Kd (Bifunctional polynucleotide phosphatase/kinase, FHA domain (Homo sapiens, UniProt Q96T60); binding, ITC; pH 7.5, 10 °C, PNK FHA domain): ~13.5 µM
CN1C(=O)C2(Cc3ccc(CC45SSC(CO)(C(=O)N4C)N(C)C5=O)cc3)SSC1(CO)C(=O)N2C (racemic)  Kd (Histone acetyltransferase p300, CH1 domain (EP300, Homo sapiens, UniProt Q09472); surface plasmon resonance; DTT 100 µM): 0.75 µM
O=C(Nc1cccc(-c2nn[nH]n2)c1)c1cc(-c2ccsc2)cc(C(F)(F)F)c1  Kd (Beta-lactamase CTX-M-27; surface plasmon resonance; 25 °C): 11.4 ± 0.7 µM
C=Cc1cc(OC)c2c(c1)c(=O)oc1c2cc(OC)c2c(O)ccc([C@@H]3O[C@H](C)[C@H](O)[C@@](C)(O)[C@H]3O)c21  Kd (2,3,4,5-tetrahydropyridine-2,6-dicarboxylate N-acetyltransferase (dapH, Staphylococcus aureus, UniProt A6QGU8); binding, microscale thermophoresis): 0.00285 ± 0.0019 µM
N#CC1(c2ccc3c(N)ncnn23)OC(COP(=O)(O)OP(=O)(O)OP(=O)(O)O)C(O)C1O (stereo not shown)  Kd (Albumin (ALB, Homo sapiens, UniProt P02768); binding; human, serum albumin; pH 6): 0.839 µM
CC[C@H](C)[C@H](NC(=O)[C@H](CS)NC(=O)[C@H](CCC(N)=O)NC(=O)[C@H](CC(C)C)NC(=O)[C@H](CCCCN)NC(=O)[C@H](CCCNC(=N)N)NC(=O)[C@H](C)NC(=O)[C@@H](NC(=O)[C@H](CCC(N)=O)NC(=O)[C@@H](NC(=O)[C@H](CCC(=O)O)NC(=O)[C@H](C)NC(=O)[C@H](CCC(N)=O)NC(=O)[C@@H](N)Cc1c[nH]cn1)C(C)C)[C@@H](C)CC)C(=O)N[C@@H](C)C(=O)N[C@@H](CC(=O)O)C(=O)N[C@@H](CCC(N)=O)C(=O)N[C@@H](Cc1ccccc1)C(=O)N[C@@H](Cc1c[nH]cn1)C(=O)N[C@@H](CCCNC(=N)N)C(=O)N[C@@H](CC(C)C)C(=O)N[C@@H](Cc1c[nH]cn1)C(=O)N[C@H](C(=O)N[C@@H](CCC(N)=O)C(=O)N[C@@H](CCC(N)=O)C(=O)O)C(C)C  Kd (BCL2 (Homo sapiens, UniProt P10415, D111A); fluorescence polarization; fluorescently labelled compound): > 100 µM
C[C@@H](O)[C@H](NC(=O)[C@@H]1CCCN1C(=O)[C@H](CO)NC(=O)[C@H](Cc1ccc(O)cc1)NC(=O)[C@H](CO)NC(=O)[C@@H]1CCCN1C(=O)[C@H](COP(=O)(O)O)NC(=O)[C@@H](NC(=O)[C@@H]1CCCN1C(=O)[C@H](CO)NC(=O)[C@H](Cc1ccc(O)cc1)NC(=O)[C@H](CO)NC(=O)[C@@H]1CCCN1C(=O)[C@@H](N)CO)[C@@H](C)O)C(=O)N[C@@H](COP(=O)(O)O)C(=O)N1CCC[C@H]1C(=O)N[C@@H](CO)C(=O)N[C@@H](Cc1ccc(O)cc1)C(=O)N[C@@H](CO)C(=O)O  Kd (Regulation of nuclear pre-mRNA domain-containing protein 1A, CID domain (RPRD1A, Homo sapiens, UniProt Q96P16); isothermal titration calorimetry; pH 7.5, 25 °C): > 1000 µM
N[C@@H](Cc1c[nH]c2ccccc12)C(=O)O  Kd (txtE (Streptomyces scabiei, UniProt C9ZDC6); binding; pH 8): 39 µM
CC[C@H](C)[C@H](NC(=O)CNC(=O)[C@H](CCSC)NC(=O)[C@H](CCC(N)=O)NC(=O)[C@H](C)NC(=O)[C@H](CCC(N)=O)NC(=O)[C@@H](NC(=O)[C@H](CC(C)C)NC(=O)[C@H](C)NC(=O)[C@H](CO)NC(=O)[C@H](CCSC)NC(=O)[C@H](CCC(=O)O)NC(=O)[C@H](CC(C)C)NC(=O)[C@H](Cc1ccc(O)cc1)NC(=O)[C@H](CO)NC(=O)[C@H](CCC(=O)O)NC(=O)[C@H](CCC(N)=O)NC(=O)[C@H](CCCNC(=N)N)NC(=O)[C@H](CCCCN)NC(=O)[C@H](CC(=O)O)NC(=O)[C@H](CC(C)C)NC(=O)[C@H](CC(N)=O)NC(=O)[C@H](Cc1ccccc1)NC(=O)[C@H](CCC(=O)O)NC(=O)[C@H](CCCCN)NC(=O)[C@@H](NC(=O)[C@H](CC(C)C)NC(=O)[C@H](CCC(=O)O)NC(=O)[C@H](CCC(=O)O)NC(=O)[C@@H](NC(=O)[C@@H](NC(=O)[C@H](CCCNC(=N)N)NC(=O)[C@H](CCCCN)NC(=O)[C@H](C)NC(=O)[C@H](Cc1ccccc1)NC(=O)[C@H](CCC(=O)O)NC(=O)[C@H](CCC(=O)O)NC(=O)[C@H](CC(C)C)NC(=O)[C@@H](N)CO)C(C)C)C(C)C)C(C)C)[C@@H](C)CC)C(=O)N[C@@H](CO)C(=O)N[C@@H](CCC(=O)O)C(=O)N[C@@H](CCCNC(=N)N)C(=O)N[C@H](C(=O)N[C@H](C(=O)N[C@@H](CCC(=O)O)C(=O)N[C@H](C(=O)N[C@H](C(=O)N[C@@H](CC(C)C)C(=O)N[C@@H](CCCNC(=N)N)C(=O)N[C@@H](Cc1c[nH]cn1)C(=O)N[C@@H](C)C(=O)N[C@@H](C)C(=O)N[C@@H](CCC(N)=O)C(=O)N[C@H](C(=O)N[C@@H](CC(C)C)C(=O)N[C@@H](CCCCN)C(=O)O)[C@@H](C)O)C(C)C)[C@@H](C)CC)[C@@H](C)CC)[C@@H](C)CC  Kd (Gasdermin-C, N-terminal domain (GSDMC, Homo sapiens, UniProt Q9BYG8); microscale thermophoresis; native HEK293 cell lysate): ~0.22 µM
C[C@H](N)C(=O)N[C@@H](CCCNC(=N)N)C(=O)N[C@H](C(=O)N[C@@H](CCCCN)C(=O)N[C@@H](CCC(N)=O)C(=O)N[C@H](C(=O)N[C@@H](C)C(=O)N[C@@H](CCCNC(=N)N)C(=O)N[C@@H](CCCCN)C(=O)N[C@@H](CO)C(=O)N[C@H](C(=O)NCC(=O)O)[C@@H](C)O)[C@@H](C)O)[C@@H](C)OP(=O)(O)O  Kd (BIRC5 (Homo sapiens, UniProt O15392, H80R); binding, ITC; pH 7.8): 60.2 µM
O=C(Nc1cccc(-c2nn[nH]n2)c1)c1cc(-n2ccnc2)cc(C(F)(F)F)c1  Kd (Beta-lactamase CTX-M-27; surface plasmon resonance; 25 °C): 6.21 ± 0.07 µM

A few entries again:
O=C(Nc1cccc(-c2nn[nH]n2)c1)c1cc(-c2ncc[nH]2)cc(C(F)(F)F)c1  Kd (Beta-lactamase CTX-M-27; surface plasmon resonance; 25 °C): 1.33 ± 0.03 µM
N=C(N)NCCC[C@H](NC(=O)[C@H](Cc1ccccc1)NC(=O)[C@@H]1CCCN1C(=O)[C@H](CO)NC(=O)[C@H](Cc1ccccc1)NC(=O)CNC(=O)[C@@H]1CCCN1C(=O)[C@@H]1CCCN1C(=O)[C@@H](N)CCCNC(=N)N)C(=O)N[C@@H](CCCCNS(=O)(=O)c1ccc(C2=c3cc4c5c(c3Oc3c2cc2c6c3CCCN6CCC2)CCC[N+]=5CCC4)c(S(=O)(=O)[O-])c1)C(=O)O  Kd (Oligopeptide-binding protein OppA (oppA, Lactococcus lactis subsp. lactis, UniProt Q07741); binding, fluorescence anisotropy; pH 7, 18 °C, together with: dye-labelled peptide): 15.4 ± 0.4 µM
